Measurements from different studies.
A part holds a random share of what one study measured. Changes are numbered by the printed parent chain.

Block 1
Target: PABPC1L2, full length, GST fusion (mouse, UniProt A0ABA7IW68)
Method: RNAcompete
Molecule type: RNA
Matrix: in vitro
Concentration: 20 nM
Notes: 7-mer, probes averaged, single round
Relative to: mean of 7-mers
Reading: higher = stronger binding
Quantity: 7-mer Z-score
Target sequence (chain): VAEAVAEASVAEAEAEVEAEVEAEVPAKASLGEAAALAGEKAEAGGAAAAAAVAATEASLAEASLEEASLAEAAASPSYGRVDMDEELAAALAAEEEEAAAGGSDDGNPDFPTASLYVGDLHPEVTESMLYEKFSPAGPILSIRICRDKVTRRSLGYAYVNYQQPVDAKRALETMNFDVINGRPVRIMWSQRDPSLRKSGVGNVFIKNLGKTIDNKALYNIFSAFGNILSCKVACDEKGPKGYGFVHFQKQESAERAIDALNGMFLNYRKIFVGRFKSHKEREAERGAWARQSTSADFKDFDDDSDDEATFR
UGGGGAG: 0.211
CGGGCAU: 0.0515
UAAUUGU: -0.142
UACCCAC: -0.369
GACCCCA: -0.146
AACAUAA: 1.74
UCCAUAG: -0.258
AAUUGCU: 0.0569

Block 2
Substitution: T160G
Target: ABI1, truncated, D143A, DHFR fusion (Arabidopsis thaliana)
Method: DHFR PCA, deep sequencing
Matrix: yeast
Notes: methotrexate growth selection, single substitutions
Relative to: wild-type fitted maximum
Reading: higher = stronger binding
Quantity: relative binding score
Parent: PYL1, truncated, DHFR fusion (Arabidopsis thaliana); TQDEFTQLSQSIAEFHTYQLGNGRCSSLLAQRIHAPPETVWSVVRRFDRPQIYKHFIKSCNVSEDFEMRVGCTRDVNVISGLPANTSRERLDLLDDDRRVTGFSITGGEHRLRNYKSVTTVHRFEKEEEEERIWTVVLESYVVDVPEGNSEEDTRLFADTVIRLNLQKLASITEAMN
with: (+)-ABA 17 µM: 39.7%
with: (+)-ABA 0 µM: -5.03%
with: (+)-ABA 0.11 µM: -1.04%
with: (+)-ABA 4.8 µM: 10.2%
with: (+)-ABA 0.032 µM: -3.81%
with: (+)-ABA 0.39 µM: -8.11%

Mixed results
P1: viral docking peptide; TSVRRALFTGGSD; partner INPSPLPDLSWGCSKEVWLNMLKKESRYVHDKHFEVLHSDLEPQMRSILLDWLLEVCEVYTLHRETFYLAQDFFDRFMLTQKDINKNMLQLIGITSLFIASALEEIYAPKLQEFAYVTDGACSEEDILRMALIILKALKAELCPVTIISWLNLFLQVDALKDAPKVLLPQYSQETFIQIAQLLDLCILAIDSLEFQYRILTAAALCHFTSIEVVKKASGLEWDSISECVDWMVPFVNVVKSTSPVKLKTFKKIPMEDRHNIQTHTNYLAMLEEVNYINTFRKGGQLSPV
TMED10 (Homo sapiens, UniProt P49755)  cross-linked residues (TMED4 (Homo sapiens, UniProt Q7Z7H5); cross-linking MS; cells; with: BSPNO): K145 to K152
P1 F8N  normalised enrichment score (CCNE2, cyclin fold, Cln2 fusion (human); yeast growth competition, sequencing; yeast; strong parent motif; relative to: not given, higher = stronger binding): 0.289

For quick reference, copied from above (block 1):
AAUUGCU: 0.0569
